Results from different studies.
Compare with care: the assays were run in different laboratories. “And” joins repeats or separate records; there may be more than shown. ± gives the spread as reported.

| Compound | cell line | test | test system | setting | how to read | quantity | value |
| --- | --- | --- | --- | --- | --- | --- | --- |
| CC(c1ccccc1)(c1ccc(O)cc1)c1ccc(O)cc1 | HepG2 spheroids | Hoechst flow cytometry |  | 1 µM, 96 h |  | S phase cells | 9.67 ± 0.98% |
| COc1ccc([C@H]2c3[nH]c4ccc(Cl)cc4c3CCN2C(=O)Oc2ccc(Cl)cc2)cc1 | CD19+ B cells with PBMC | cytokine secretion, measured: s-IL-6 |  | 0.1 µM, 72 h, BioMAP BT system |  | inhibition | 72% |
| COc1cnc2cccc(N3CCc4c(cc(Cn5ccnc5C)cc4-c4cn(C)nc4C(F)(F)F)C3=O)c2c1 | A101D | cell growth, inhibitor |  | 120 h |  | EC50 | > 30 µM |
| N.N.[Cl][Pt][Cl] | A3/KAW | cell proliferation, CellTiter-Glo |  | 10 µM, 72 h |  | inhibition | 100% |
| O=C(c1cc(-n2sc3ncccc3c2=O)ccc1Cl)N1CCOCC1 | HIV-infected PBMCs |  |  | 1.0 µM, two donors |  | CD4 surface recovery | 6 ± 3.6% |
| Oc1cc(Cl)ccc1Oc1ccc(Cl)cc1Cl | HepG2 | extracellular flux, measured: oxygen consumption rate |  | 6 h, representative mode |  | point of departure | 1.29 µM |
| Cn1nccc1Nc1nccc(-c2cc3c(s2)C(C)(C)N(CCN2CCOCC2)C3=O)n1 | HCT116 | IncuCyte |  | concentration not given, 12 (unit not given) |  | PI-positive cells | 3.25 count and 4.08 count |
| Cn1cc(Nc2nccc(-c3ccc4c(c3)CN(C3COC3)CC[C@H]4NC(=O)c3cn(C(C)(C)C)nn3)n2)cn1 | mouse splenic B cells | measured: Neurotrophin/TRK signalling |  | 30 mg/kg, IgD-activated in vivo | reference: vehicle, direction not given | pathway activation z-score | 3.32 |
| O=C1CCP(=S)(c2ccccc2)CC1 | HaCaT | trypan blue |  | IC50, 72 h | reference: untreated | reduction of cell number | 27 to 31% |
| N.N.[Cl][Pt][Cl] | SK-MEL-28 | cell growth, SRB |  | dark, normoxia |  | TGI | 1.24 µM |
| N.N.[Cl][Pt][Cl] | MCF7 |  |  | irradiated | reference: IC50 MCF-10A over IC50 MCF7 | selectivity ratio | 1.5 |
| CC(C)=CCc1c(O)cc(O)cc1-c1cc2ccc(O)c(CC=C(C)C)c2o1 | MCF7 | cell growth, MTT |  | 100 µg/mL, 48 h |  | cell survival | 35.87 ± 0.34% |
| COc1cc(CCC[P+](c2ccccc2)(c2ccccc2)c2ccccc2)c(OC)c2c1OCO2.[I-] | CCRF-CEM | SRB |  |  |  | Log10LC50 | > -4 log M |
| Cn1cncc1C1=CN(c2ncnc3[nH]cnc23)CCS1 | Hs-578T |  |  |  |  | CC50 | > 200 µM |
| Oc1cc(O)cc(-c2cc3ccc(O)cc3o2)c1 | 3T3 | cell growth, MTT |  | 50 µg/mL, 48 h |  | cell survival | 47.4 ± 0.82% |
| CN1CCN(S(=O)(=O)c2cc([N+](=O)[O-])ccc2N(CCOS(C)(=O)=O)CCOS(C)(=O)=O)CC1 | sample A B-ALL PDX cells | cell viability | ex vivo | 48 h, with: AKR1C3 inhibitor 1 µM, 1 h pretreatment |  | IC50 | 22 µM |
| CC(C)C[C@H](NC(=O)[C@H](CCc1ccccc1)NC(=O)CN1CCOCC1)C(=O)N[C@@H](Cc1ccccc1)C(=O)N[C@@H](CC(C)C)C(=O)[C@@]1(C)CO1 | patient normal conditionally reprogrammed cells | RNA-seq, measured: TUBB4A mRNA | human | concentration not given | reference: DMSO | fold change | -99.6 |

| Compound | cell line | test | test system | setting | how to read | quantity | value |
| --- | --- | --- | --- | --- | --- | --- | --- |
| Oc1ccc(C2(c3ccc(O)cc3)c3ccccc3-c3ccccc32)cc1 | HepG2 spheroids | Hoechst flow cytometry |  | 1 µM, 96 h |  | G1 phase cells | 72.5 ± 4.17% |
| COc1cnc(OC)n2nc(NS(=O)(=O)c3c(OCC(F)F)cccc3C(F)(F)F)nc12 | HEK293T | cytotoxicity, CCK-8 |  | 25 µM, 72 h |  | inhibition | 0.37 ± 0.44% |
| O=C1N(Cc2ccccc2Cl)c2ccccc2C12NN=C(c1ccccc1)S2 (stereo not shown) | MDA-MB-468 | gene expression array, measured: NQO1 mRNA |  | 10 µM, 12 h | reference: untreated, down | fold change | 1.58 |
| CCN(CC)c1ccc(C=NNC(=O)CSc2nc3ccccc3c(=O)n2Cc2ccc(S(N)(=O)=O)cc2)c(O)c1 | SNB-19 | NCI five-dose screen |  |  |  | CC50 | > 100 µM |
| COc1c(CCC[P+](c2ccccc2)(c2ccccc2)c2ccccc2)cc2c(c1OC)OCO2.[I-] | CCRF-CEM | SRB |  |  |  | Log10TGI | > -4 log M |
| CN1CCN(C2(CNC3CCN(c4cccc(-c5cc6cc(F)ccc6[nH]5)c4)CC3)CCC2)CC1 | Hs-578T |  |  |  |  | CC50 | > 100 µM |
| COc1ccc2c(c1)CC[C@@H]1[C@@H]2CC[C@]2(C)[C@@H](NCCCCCCN3C(=O)C=CC3=O)CC[C@@H]12 | N2a | fluorescence signal increase, inhibitor |  | 1 µM, with: UTP 300 µM |  | effect on signal | decreased |
| C/C=C(/C)C(=O)O[C@H]1C(C)=C2[C@H]([C@@H]1OC(=O)CCCCCCC)[C@@](C)(OC(C)=O)C[C@H](OC(=O)CCC)[C@@]1(O)[C@H]2OC(=O)[C@@]1(C)O | HEK-293T | RNA-seq GSEA, measured: Hallmark allograft rejection |  | 500 nM, 6 h | direction not given | normalized enrichment score | -1.04 |
| COc1ccc2c(c1)[nH]c1c(C)nccc12 | DU-145 | bisulfite pyrosequencing, measured: RASSF1A promoter CpG site 13 |  | 10 µM, 16 h |  | DNA methylation | 94.6% |
| COc1cc2c(cc1OC)[C@@]13CCN4CC5=CCO[C@H]6CC(=O)N2[C@H]1[C@H]6[C@H]5C[C@H]43 | primary rat hippocampal/cortical neuron-glia cultures |  |  | 1 µM, with: 1 µM α-synuclein oligomers |  | reversal of trafficking deficit | -15.2% |
| COc1c(C)c2c(c(O)c1C/C=C(\C)CCC(=O)O)C(=O)OC2 | A-431 | cell proliferation |  |  |  | IC50 | 0.282 µM |
| C[C@H]1[C@H](C)CC[C@]2(C(=O)O)CC[C@]3(C)C(=CC[C@@H]4[C@@]5(C)CC[C@H](O)C(C)(C)[C@@H]5CC[C@]43C)[C@H]12 | 3T3 | cell growth, MTT |  | 100 µg/mL, 48 h |  | cell survival | 31.6 ± 0.51% |
| CC(C)N1CCC(NC2CCN(c3cccc(-c4cc5cc(F)ccc5[nH]4)c3)CC2)CC1 | SNB-19 |  |  | NCI60 CNS cancer panel |  | TGI | 3.48 µM |
| Nc1ncc(-c2nc(N3CCOCC3)nc(N3CCOCC3)n2)c(C(F)F)n1 | T98G |  |  | 72 h |  | GI50 | 0.118 µM |
| Cc1nn(-c2nc3ccc(Cl)c(Cl)c3[nH]2)c(O)c1C1OC(=O)c2ccccc21 (stereo not shown) | RAW-ISG | CCK-8 |  | 0.3 µM |  | viability | 103% and 111% and 98.2% and 108% and 102% |
| Nc1ncnc2c1ncn2[C@@H]1O[C@@H]2COP(=O)(O)O[C@H]3[C@@H](O)[C@H](n4cnc5c(=O)[nH]cnc54)O[C@@H]3COP(=O)(O)O[C@H]2[C@H]1O | HFF-1 | RNA sequencing, measured: Reactome R-HSA-3560783 |  | downregulated pathway | reference: Zika virus alone | pathway fold enrichment | 14.2 |
| Cc1cccc(-c2cccc(C)n2)n1.Cc1cccc(-c2cccc(C)n2)n1.F[P-](F)(F)(F)(F)F.F[P-](F)(F)(F)(F)F.[Ru+2].c1ccc2cc(-c3nc4c5cccnc5c5ncccc5c4[nH]3)ccc2c1 | SK-MEL-28 |  |  | 1% O2, with: green light 523 nm, 100 J/cm2 | reference: dark over light EC50 | phototoxicity index | 1 |

Excerpt of the above:
| Compound | cell line | test | test system | setting | how to read | quantity | value |
| --- | --- | --- | --- | --- | --- | --- | --- |
| Oc1cc(Cl)ccc1Oc1ccc(Cl)cc1Cl | HepG2 | extracellular flux, measured: oxygen consumption rate |  | 6 h, representative mode |  | point of departure | 1.29 µM |
| Cn1nccc1Nc1nccc(-c2cc3c(s2)C(C)(C)N(CCN2CCOCC2)C3=O)n1 | HCT116 | IncuCyte |  | concentration not given, 12 (unit not given) |  | PI-positive cells | 3.25 count and 4.08 count |
| Cn1cc(Nc2nccc(-c3ccc4c(c3)CN(C3COC3)CC[C@H]4NC(=O)c3cn(C(C)(C)C)nn3)n2)cn1 | mouse splenic B cells | measured: Neurotrophin/TRK signalling |  | 30 mg/kg, IgD-activated in vivo | reference: vehicle, direction not given | pathway activation z-score | 3.32 |
| O=C1CCP(=S)(c2ccccc2)CC1 | HaCaT | trypan blue |  | IC50, 72 h | reference: untreated | reduction of cell number | 27 to 31% |
| N.N.[Cl][Pt][Cl] | SK-MEL-28 | cell growth, SRB |  | dark, normoxia |  | TGI | 1.24 µM |
